Measurements from different studies.
Each numbered part is a random draw from the data of one study; scales do not carry over between parts. “And” joins repeats or separate records; there may be more than shown.
UniProt Q16566, sequence (whole entry, looked up): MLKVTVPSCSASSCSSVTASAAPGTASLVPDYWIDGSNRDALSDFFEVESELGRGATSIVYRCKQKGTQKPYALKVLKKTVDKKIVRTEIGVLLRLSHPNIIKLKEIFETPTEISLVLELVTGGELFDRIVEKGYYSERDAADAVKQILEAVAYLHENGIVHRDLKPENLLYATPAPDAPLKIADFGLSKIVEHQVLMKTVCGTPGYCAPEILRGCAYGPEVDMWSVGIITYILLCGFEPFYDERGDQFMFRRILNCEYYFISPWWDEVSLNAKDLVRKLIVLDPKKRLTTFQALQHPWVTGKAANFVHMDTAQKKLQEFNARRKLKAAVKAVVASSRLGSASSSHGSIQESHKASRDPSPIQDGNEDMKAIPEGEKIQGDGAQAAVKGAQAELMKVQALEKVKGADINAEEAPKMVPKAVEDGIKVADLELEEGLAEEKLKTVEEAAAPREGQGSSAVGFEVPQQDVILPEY
UniProt P42681, sequence (whole entry, looked up): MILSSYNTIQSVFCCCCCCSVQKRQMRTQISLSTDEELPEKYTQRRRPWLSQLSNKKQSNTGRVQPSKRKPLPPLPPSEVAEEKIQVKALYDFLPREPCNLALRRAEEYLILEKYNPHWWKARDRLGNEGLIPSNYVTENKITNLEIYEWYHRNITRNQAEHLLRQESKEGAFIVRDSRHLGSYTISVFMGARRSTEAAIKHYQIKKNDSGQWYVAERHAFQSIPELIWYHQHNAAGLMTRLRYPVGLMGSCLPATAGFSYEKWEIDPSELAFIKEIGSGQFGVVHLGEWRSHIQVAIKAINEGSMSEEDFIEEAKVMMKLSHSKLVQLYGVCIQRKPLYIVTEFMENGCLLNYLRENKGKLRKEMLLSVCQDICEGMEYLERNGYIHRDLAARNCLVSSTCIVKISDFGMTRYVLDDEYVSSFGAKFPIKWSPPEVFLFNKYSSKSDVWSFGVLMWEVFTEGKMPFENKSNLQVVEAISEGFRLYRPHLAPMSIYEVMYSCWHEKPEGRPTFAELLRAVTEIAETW
UniProt Q9HAZ1, sequence (whole entry, looked up): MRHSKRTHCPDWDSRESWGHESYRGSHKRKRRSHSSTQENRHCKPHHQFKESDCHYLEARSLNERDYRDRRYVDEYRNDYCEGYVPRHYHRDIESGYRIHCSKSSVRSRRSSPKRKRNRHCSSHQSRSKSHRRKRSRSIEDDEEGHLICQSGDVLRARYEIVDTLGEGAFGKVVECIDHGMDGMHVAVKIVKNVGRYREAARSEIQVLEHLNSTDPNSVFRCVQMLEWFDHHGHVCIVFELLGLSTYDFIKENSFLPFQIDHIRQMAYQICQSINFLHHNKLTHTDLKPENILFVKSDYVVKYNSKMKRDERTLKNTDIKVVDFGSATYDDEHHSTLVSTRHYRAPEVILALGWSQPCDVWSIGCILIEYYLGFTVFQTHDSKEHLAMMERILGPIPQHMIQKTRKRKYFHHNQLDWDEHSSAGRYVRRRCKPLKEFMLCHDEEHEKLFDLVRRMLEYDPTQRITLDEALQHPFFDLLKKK
UniProt P50750, sequence (whole entry, looked up): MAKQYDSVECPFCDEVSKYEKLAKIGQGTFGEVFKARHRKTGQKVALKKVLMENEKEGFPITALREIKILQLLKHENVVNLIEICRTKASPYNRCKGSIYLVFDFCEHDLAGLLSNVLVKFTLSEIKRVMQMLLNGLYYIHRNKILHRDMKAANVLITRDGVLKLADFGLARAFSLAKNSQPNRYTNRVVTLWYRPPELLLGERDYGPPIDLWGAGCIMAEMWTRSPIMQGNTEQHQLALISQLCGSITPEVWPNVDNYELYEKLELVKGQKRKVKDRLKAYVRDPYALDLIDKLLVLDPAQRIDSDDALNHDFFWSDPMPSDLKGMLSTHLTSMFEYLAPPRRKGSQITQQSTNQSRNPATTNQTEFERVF
UniProt P08581, sequence (whole entry, looked up): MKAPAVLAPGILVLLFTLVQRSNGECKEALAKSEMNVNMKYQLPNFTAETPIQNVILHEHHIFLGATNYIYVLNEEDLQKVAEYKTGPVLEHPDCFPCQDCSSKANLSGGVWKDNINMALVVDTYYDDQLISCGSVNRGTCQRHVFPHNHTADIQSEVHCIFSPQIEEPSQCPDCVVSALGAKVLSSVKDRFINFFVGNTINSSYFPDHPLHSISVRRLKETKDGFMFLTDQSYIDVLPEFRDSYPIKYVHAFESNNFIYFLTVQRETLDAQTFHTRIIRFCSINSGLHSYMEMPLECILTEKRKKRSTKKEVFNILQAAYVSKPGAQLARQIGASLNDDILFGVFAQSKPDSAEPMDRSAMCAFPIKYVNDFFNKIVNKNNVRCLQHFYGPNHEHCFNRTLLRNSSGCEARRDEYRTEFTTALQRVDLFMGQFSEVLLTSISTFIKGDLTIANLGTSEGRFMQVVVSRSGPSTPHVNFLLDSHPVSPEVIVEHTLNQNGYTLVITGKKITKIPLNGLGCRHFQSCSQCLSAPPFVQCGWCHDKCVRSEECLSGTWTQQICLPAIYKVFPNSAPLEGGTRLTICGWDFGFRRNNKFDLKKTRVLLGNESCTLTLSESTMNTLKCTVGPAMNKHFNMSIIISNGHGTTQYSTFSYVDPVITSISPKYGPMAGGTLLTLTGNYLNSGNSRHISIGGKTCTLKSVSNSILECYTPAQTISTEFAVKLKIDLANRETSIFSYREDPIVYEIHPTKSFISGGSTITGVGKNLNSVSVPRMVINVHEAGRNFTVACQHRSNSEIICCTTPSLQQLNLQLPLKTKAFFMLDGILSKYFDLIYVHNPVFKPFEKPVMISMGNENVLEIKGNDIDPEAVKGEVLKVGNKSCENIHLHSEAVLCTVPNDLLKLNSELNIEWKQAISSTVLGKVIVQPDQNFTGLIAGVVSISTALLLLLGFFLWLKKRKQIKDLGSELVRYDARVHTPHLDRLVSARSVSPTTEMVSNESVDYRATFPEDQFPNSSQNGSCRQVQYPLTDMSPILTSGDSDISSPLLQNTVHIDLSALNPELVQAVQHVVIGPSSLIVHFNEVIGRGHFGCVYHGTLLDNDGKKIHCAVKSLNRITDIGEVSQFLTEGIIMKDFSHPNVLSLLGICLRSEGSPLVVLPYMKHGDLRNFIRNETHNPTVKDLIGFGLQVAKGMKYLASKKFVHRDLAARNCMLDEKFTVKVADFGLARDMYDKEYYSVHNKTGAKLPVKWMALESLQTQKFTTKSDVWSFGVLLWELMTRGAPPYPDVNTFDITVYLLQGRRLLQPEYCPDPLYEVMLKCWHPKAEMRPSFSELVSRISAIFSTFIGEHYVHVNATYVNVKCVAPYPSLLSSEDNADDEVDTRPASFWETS
UniProt Q8WXR4, sequence (whole entry, looked up): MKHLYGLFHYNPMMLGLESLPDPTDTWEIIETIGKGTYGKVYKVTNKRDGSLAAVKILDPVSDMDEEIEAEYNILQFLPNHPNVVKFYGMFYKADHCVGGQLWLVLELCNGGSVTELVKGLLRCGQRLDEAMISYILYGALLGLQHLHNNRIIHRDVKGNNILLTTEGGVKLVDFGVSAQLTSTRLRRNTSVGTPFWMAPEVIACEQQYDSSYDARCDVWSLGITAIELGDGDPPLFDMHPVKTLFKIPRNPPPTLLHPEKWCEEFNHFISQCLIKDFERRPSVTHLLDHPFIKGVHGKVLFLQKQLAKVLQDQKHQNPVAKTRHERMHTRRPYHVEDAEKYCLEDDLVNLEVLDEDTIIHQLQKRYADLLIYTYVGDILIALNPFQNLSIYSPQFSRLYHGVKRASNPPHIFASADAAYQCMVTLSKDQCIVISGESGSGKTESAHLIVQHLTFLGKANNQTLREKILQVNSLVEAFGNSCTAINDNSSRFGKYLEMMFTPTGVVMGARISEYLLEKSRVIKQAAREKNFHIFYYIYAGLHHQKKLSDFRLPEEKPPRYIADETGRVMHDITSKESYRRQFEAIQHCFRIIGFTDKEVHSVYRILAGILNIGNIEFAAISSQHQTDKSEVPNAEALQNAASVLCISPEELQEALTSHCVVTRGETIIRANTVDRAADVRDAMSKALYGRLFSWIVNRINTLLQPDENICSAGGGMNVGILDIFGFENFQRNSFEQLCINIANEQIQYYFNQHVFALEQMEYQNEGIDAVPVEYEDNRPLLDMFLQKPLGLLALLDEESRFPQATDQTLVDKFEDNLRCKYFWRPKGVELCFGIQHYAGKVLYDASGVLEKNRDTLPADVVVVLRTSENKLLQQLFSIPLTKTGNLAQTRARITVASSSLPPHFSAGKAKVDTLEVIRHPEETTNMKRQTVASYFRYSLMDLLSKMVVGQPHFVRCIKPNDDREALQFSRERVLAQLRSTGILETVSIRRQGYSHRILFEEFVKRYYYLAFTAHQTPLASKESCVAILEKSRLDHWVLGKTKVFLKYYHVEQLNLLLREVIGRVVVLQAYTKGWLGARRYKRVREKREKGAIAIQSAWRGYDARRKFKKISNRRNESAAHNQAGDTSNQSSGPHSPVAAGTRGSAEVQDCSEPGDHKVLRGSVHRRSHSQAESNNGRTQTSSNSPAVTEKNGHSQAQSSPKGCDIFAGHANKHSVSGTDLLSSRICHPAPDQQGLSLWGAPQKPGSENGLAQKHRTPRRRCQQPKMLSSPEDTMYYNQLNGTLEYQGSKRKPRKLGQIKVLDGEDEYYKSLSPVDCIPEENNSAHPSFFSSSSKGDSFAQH

Study 1 — SMILES: O=C1NC(=O)/C(=C/c2ccc3c(c2)OC(F)(F)O3)S1; effect on: enzyme activity; action: inhibitor; tested at: 0.5 µM; relative to: control
| target | remaining activity [%] |
| --- | --- |
| PNCK (Homo sapiens, UniProt Q6P2M8) | 96 |
| CDC42BPB (Homo sapiens, UniProt Q9Y5S2) | 96.4 |
| Myosin-IIIb (MYO3B, Homo sapiens, UniProt Q8WXR4) | 87.9 |
| PLK3 (Homo sapiens, UniProt Q9H4B4) | 92.4 |
| MAPK14 (Homo sapiens, UniProt Q16539) | 86.7 |
| MAPK1 (Homo sapiens, UniProt P28482) | 85.7 |
| Cyclin-dependent kinase 1, with cyclin A (CDK1, Homo sapiens, UniProt P06493) | 97.2 |
| CAMK4 (Homo sapiens, UniProt Q16566) | 101 |
| DCLK2 (Homo sapiens, UniProt Q8N568) | 99.7 |
| CLK4 (Homo sapiens, UniProt Q9HAZ1) | 88.8 |
| Cyclin-dependent kinase 9, with cyclin K (CDK9, Homo sapiens, UniProt P50750) | 93.5 |
| MET (Homo sapiens, UniProt P08581) | 96.2 |
| TLK2 (Homo sapiens, UniProt Q86UE8) | 104 |
| TXK (Homo sapiens, UniProt P42681) | 95.4 |

Study 2 — sample: plasma; route: oral
Compound: COc1ccc(-c2c(Nc3ccccn3)[nH]c3c(C4=CCCCC4)c(-c4ccccc4)nn3c2=O)cc1
| method | host | dose | time | notes | plasma concentration, mean [ng/mL] |
| --- | --- | --- | --- | --- | --- |
| – | cancer patients | 200 mg | 3 h post-dose | single dose | 1510 |
| – | cancer patients | 150 mg | 8 h post-dose | single dose | 1210 |
| – | cancer patients | 50 mg | 1 h post-dose | single dose | 162 |
| – | cancer patients | 150 mg | 2 h post-dose | single dose | 1300 |
| – | cancer patients | 100 mg | 1 h post-dose | single dose | 284 |
| LC-MS/MS | human | 200 mg twice daily | 8 h | – | 9530 |
| – | cancer patients | 50 mg | 3 h post-dose | single dose | 447 |

Study 3 — effect on: ligand displacement; tested at: 10 µM
Target: Histamine H2 receptor (HRH2, Homo sapiens, UniProt P25021)
UniProt P25021, sequence (whole entry, looked up): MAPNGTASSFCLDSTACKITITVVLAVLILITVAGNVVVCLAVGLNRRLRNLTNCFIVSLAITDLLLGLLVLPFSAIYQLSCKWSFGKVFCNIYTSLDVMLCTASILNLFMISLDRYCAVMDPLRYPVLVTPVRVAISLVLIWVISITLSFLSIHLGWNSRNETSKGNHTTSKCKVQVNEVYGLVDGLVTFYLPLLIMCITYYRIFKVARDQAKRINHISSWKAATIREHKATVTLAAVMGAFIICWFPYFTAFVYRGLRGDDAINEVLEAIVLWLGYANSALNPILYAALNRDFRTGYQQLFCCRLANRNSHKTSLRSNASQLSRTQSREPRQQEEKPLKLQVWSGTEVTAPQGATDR
| Structure (SMILES) | inhibition [%] |
| --- | --- |
| Cn1nc(C(=O)NCc2ccc(C(=O)O)cc2)cc1-c1ccc2[nH]ccc2c1 | 8.57 |
| COc1cccc(NC(=O)c2nc3scc(CN(C)Cc4ccccc4)c3c(=O)[nH]2)c1 | 30.7 |
| O=C(NCCCC1CCCCC1)c1ccc(CNC(=O)c2cnn(-c3ccccc3)c2C(F)(F)F)cc1 | -2.78 |
| N#CC1(c2ccccn2)CCN(Cc2cc(C(=O)N3CCCC3)c(=O)n3ccccc23)CC1 | 3.1 |
| CN([C@@H]1CCc2c(CC(=O)O)c3ccccc3n2C1)S(=O)(=O)c1ccc(F)cc1 | -1.62 |
| Nc1cnc(N2CCc3cc(S(=O)(=O)Nc4c(F)cc(Cl)cc4F)cc(N4CCCC4=O)c32)nc1 | 8.19 |
| CCOc1ccc(S(=O)(=O)Nc2ccc(Cl)cc2C#Cc2cnc(C(=O)O)cc2OC)c2ncccc12 | 24.2 |
| O=C(Nc1ccc(Oc2ccc(F)cc2)cc1)N1CCc2ncccc2[C@H]1c1ccc(F)cc1 | 7.29 |
| CS(=O)(=O)N1CCCC(NC(=O)[C@H](CCC2CCCCC2)NC(=O)c2ccc(CNC(=O)c3cnc4ccccn34)cc2)C1 (stereo partly drawn) | -15.1 |
| Cc1cc(Nc2nccc(C)n2)cc(-c2cnc([C@@]3(O)CC[C@H](C(=O)O)C(C)(C)C3)s2)c1 | 3.06 |
| C[C@@H]1CN(c2cc(-c3n[nH]c4ccc(OC5(C)CC5)cc34)ncn2)C[C@H](C)O1 | 6.26 |
| O=S(=O)(NC1CCC(c2cc(F)ccc2F)(S(=O)(=O)c2ccc(Cl)cc2)CC1)C(F)(F)F (stereo not drawn) | -16.9 |
| c1ccc(N2CCN(Cc3nc4ccccc4[nH]3)CC2)nc1 | 31.2 |
| COc1cc(C(=O)O)ncc1C#Cc1ccccc1NS(=O)(=O)c1cccc2c(N(C)C)ccnc12 | -19.5 |
| O=C(N[C@H]1CCCCC/C=C\C2C[C@@]2(C(=O)O)NC(=O)[C@@H]2C[C@@H](Oc3ccncc3)CN2C1=O)OC1CCCC1 (stereo partly drawn) | 15.6 |
| O=C(NS(=O)(=O)c1ccc(NCC2CCOCC2)c([N+](=O)[O-])c1)c1ccc(N2CCN(Cc3ccc(C(F)(F)F)cc3-c3ccc(Cl)cc3)CC2)cc1Oc1cnc2[nH]ccc2c1 | 8.95 |
| CC1=C(C#N)C(c2ccc3[nH]nc(C)c3c2)C(C#N)=C(C)N1 | 12.6 |
| Cc1ccccc1Oc1cc(-n2c(=O)cc(C(F)(F)F)[nH]c2=O)c2ccccc2c1Cl | 5.46 |
| O=C1NC(c2ccccn2)Sc2ccccc21 (stereo not drawn) | 24.8 |
| CN1CCN(C(=O)C(C)(C)c2ccc(C(=O)Nc3cn4cc(-c5cc(C(C)(C)C)cc(C(C)(C)C)c5)ccc4n3)cc2)CC1 | 86.8 |
| C[C@@H](c1cccc(C#N)c1)n1cc(Cl)cc(C(N)=O)c1=N | 8.25 |
| CC(=O)Nc1ncc(CN2CCC[C@H](Cc3cc(C)nc(C)c3)C2)s1 | 3.45 |
| NS(=O)(=O)c1cc(NC(=O)Cc2ccccc2)ccc1Oc1cccc(Cl)c1 | -4.85 |
| NC(=O)c1ccc2nc(-c3ccc(C4(N)CCC4)cc3)c(-c3ccccc3)n2n1 | 0.95 |

Study 4 — cell line: A-375; tested at: 100 µM; time: 18 h
| SMILES | viability |
| --- | --- |
| Cc1ncc([N+](=O)[O-])n1CCO | 95% |
| CC1(C)O[C@@H]2C[C@H]3[C@@H]4CCC5=CC(=O)C=C[C@]5(C)[C@@]4(F)[C@@H](O)C[C@]3(C)[C@]2(C(=O)CO)O1 | 84.3% |
| Clc1ccc(CCC(Cn2ccnc2)Sc2c(Cl)cccc2Cl)cc1 (stereo not drawn) | 8.13% |
| CC1(C)S[C@@H]2[C@H](NC(=O)[C@H](N)c3ccccc3)C(=O)N2[C@H]1C(=O)O | 95.6% and 107% |
| C=CCN1CCCC1CNC(=O)c1cc2[nH]nnc2cc1OC (stereo not drawn) | 91.3% |
| CNC(=C[N+](=O)[O-])NCCSCc1csc(CN(C)C)n1 | 113% |

Excerpt of the above (study 1):
| target | remaining activity [%] |
| --- | --- |
| Cyclin-dependent kinase 1, with cyclin A (CDK1, Homo sapiens, UniProt P06493) | 97.2 |
| CAMK4 (Homo sapiens, UniProt Q16566) | 101 |
| DCLK2 (Homo sapiens, UniProt Q8N568) | 99.7 |
| CLK4 (Homo sapiens, UniProt Q9HAZ1) | 88.8 |
| Cyclin-dependent kinase 9, with cyclin K (CDK9, Homo sapiens, UniProt P50750) | 93.5 |
| MET (Homo sapiens, UniProt P08581) | 96.2 |
| TLK2 (Homo sapiens, UniProt Q86UE8) | 104 |
